Experimental data gathered from unrelated publications.
Protocols differ between the studies behind these lines. ± marks the error that the study gave.
EIF4E2: EIF4E2 (Homo sapiens, UniProt O60573)
Chain of UniProt O60573 (whole entry, looked up): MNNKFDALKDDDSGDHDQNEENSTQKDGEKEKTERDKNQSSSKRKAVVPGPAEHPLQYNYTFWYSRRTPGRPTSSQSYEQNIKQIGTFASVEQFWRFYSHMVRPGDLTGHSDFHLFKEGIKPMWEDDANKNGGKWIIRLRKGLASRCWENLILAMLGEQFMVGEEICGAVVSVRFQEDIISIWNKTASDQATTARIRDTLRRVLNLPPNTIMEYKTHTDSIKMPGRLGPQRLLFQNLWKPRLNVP
CXCR2: C-X-C chemokine receptor type 2 (CXCR2, Homo sapiens, UniProt P25025)
Chain of UniProt P25025 (whole entry, looked up): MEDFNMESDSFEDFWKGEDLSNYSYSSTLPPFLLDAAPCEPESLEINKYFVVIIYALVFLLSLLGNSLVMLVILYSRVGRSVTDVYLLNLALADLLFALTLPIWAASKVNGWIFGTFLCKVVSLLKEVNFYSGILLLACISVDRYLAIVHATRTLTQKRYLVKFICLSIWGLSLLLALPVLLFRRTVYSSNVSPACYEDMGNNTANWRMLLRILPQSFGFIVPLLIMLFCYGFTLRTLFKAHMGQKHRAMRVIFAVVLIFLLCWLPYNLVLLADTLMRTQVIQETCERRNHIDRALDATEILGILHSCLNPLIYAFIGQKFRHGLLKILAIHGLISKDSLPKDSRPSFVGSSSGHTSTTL
B1: human SMC1A; sequence looked up; chain MGFLKLIEIENFKSYKGRQIIGPFQRFTAIIGPNGSGKSNLMDAISFVLGEKTSNLRVKTLRDLIHGAPVGKPAANRAFVSMVYSEEGAEDRTFARVIVGGSSEYKINNKVVQLHEYSEELEKLGILIKARNFLVFQGAVESIAMKNPKERTALFEEISRSGELAQEYDKRKKEMVKAEEDTQFNYHRKKNIAAERKEAKQEKEEADRYQRLKDEVVRAQVQLQLFKLYHNEVEIEKLNKELASKNKEIEKDKKRMDKVEDELKEKKKELGKMMREQQQIEKEIKEKDSELNQKRPQYIKAKENTSHKIKKLEAAKKSLQNAQKHYKKRKGDMDELEKEMLSVEKARQEFEERMEEESQSQGRDLTLEENQVKKYHRLKEEASKRAATLAQELEKFNRDQKADQDRLDLEERKKVETEAKIKQKLREIEENQKRIEKLEEYITTSKQSLEEQKKLEGELTEEVEMAKRRIDEINKELNQVMEQLGDARIDRQESSRQQRKAEIMESIKRLYPGSVYGRLIDLCQPTQKKYQIAVTKVLGKNMDAIIVDSEKTGRDCIQYIKEQRGEPETFLPLDYLEVKPTDEKLRELKGAKLVIDVIRYEPPHIKKALQYACGNALVCDNVEDARRIAFGGHQRHKTVALDGTLFQKSGVISGGASDLKAKARRWDEKAVDKLKEKKERLTEELKEQMKAKRKEAELRQVQSQAHGLQMRLKYSQSDLEQTKTRHLALNLQEKSKLESELANFGPRINDIKRIIQSREREMKDLKEKMNQVEDEVFEEFCREIGVRNIREFEEEKVKRQNEIAKKRLEFENQKTRLGIQLDFEKNQLKEDQDKVHMWEQTVKKDENEIEKLKKEEQRHMKIIDETMAQLQDLKNQHLAKKSEVNDKNHEMEEIRKKLGGANKEMTHLQKEVTAIETKLEQKRSDRHNLLQACKMQDIKLPLSKGTMDDISQEEGSSQGEDSVSGSQRISSIYAREALIEIDYGDLCEDLKDAQAEEEIKQEMNTLQQKLNEQQSVLQRIAAPNMKAMEKLESVRDKFQETSDEFEAARKRAKKAKQAFEQIKKERFDRFNACFESVATNIDEIYKALSRNSSAQAFLGPENPEEPYLDGINYNCVAPGKRFRPMDNLSGGEKTVAALALLFAIHSYKPAPFFVLDEIDAALDNTNIGKVANYIKEQSTCNFQAIVISLKEEFYTKAESLIGVYPEQGDCVISKVLTFDLTKYPDANPNPNEQ
Chain of UniProt P84090 (whole entry, unmodified, looked up): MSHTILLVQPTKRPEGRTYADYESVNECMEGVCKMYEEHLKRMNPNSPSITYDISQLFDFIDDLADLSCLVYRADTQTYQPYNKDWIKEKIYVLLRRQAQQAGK
Chain of UniProt P20029 (whole entry, looked up): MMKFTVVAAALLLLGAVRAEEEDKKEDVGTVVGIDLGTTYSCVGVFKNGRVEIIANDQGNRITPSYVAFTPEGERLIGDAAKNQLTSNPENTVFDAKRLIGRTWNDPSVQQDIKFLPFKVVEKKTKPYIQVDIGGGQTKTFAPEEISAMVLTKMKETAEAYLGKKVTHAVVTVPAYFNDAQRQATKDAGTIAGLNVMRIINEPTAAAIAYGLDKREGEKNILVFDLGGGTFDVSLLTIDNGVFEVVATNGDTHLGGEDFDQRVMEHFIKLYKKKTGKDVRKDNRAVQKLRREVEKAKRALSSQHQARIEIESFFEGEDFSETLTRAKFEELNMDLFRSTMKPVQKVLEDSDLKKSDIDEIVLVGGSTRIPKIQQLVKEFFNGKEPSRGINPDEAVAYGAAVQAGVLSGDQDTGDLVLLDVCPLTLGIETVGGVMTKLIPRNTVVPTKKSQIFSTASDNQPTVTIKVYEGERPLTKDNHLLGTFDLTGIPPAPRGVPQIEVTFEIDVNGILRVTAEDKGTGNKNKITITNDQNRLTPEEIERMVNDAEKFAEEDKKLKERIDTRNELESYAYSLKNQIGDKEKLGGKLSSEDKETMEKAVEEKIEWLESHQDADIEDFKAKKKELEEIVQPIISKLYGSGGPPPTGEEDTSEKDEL
Chain of UniProt Q9QUK6 (whole entry, looked up): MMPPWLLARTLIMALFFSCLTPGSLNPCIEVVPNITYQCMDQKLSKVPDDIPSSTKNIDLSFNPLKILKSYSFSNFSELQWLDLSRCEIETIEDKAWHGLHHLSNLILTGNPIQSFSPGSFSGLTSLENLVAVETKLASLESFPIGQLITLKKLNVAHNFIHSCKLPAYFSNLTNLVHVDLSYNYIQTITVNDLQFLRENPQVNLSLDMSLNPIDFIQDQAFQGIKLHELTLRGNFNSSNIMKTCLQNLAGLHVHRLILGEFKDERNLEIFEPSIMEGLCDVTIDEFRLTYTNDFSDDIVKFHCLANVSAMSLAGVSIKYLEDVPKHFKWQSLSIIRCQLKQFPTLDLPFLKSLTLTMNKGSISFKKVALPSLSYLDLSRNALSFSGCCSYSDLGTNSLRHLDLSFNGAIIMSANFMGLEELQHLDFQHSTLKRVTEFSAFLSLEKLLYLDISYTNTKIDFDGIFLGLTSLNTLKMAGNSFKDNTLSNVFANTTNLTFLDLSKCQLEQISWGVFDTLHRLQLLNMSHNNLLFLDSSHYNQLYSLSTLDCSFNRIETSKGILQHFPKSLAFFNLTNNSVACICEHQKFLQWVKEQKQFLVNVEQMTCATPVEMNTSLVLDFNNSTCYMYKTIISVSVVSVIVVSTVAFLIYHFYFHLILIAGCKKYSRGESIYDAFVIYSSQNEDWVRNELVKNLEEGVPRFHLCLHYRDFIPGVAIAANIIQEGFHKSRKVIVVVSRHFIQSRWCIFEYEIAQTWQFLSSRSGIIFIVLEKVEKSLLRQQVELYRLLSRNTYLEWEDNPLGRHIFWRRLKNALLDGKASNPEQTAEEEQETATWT
Chain of UniProt Q16620 (whole entry, looked up): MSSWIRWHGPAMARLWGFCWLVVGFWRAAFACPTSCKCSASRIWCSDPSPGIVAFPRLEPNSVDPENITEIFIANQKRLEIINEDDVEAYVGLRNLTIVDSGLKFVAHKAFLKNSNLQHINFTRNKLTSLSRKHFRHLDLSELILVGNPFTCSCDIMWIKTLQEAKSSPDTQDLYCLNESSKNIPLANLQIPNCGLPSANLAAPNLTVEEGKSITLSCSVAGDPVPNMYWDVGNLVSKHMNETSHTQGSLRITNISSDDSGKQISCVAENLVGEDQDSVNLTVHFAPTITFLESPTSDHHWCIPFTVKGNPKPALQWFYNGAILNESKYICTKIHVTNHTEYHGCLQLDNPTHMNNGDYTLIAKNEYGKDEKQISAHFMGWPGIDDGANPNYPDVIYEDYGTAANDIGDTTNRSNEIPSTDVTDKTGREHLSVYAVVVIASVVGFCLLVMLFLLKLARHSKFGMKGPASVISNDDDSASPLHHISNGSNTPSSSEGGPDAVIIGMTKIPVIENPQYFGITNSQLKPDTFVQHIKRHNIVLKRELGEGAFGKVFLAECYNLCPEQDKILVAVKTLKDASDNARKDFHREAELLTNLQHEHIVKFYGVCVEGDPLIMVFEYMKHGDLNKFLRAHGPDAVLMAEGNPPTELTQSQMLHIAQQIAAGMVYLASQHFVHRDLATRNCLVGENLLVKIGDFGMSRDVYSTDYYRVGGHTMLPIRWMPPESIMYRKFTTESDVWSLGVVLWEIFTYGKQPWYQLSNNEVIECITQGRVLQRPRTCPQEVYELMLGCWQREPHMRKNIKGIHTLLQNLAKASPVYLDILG

Substance | target or system | assay | system | setting | scale | quantity | result
human Ku70 | PP6C (human) | co-immunoprecipitation, IP-MS | CYB5R4 knockout cells | concentration not given | relative to: CYB5R4 knockout over parental | log2 fold change | -2.87
KYKLADYRYGREEMLALFLK (GIGYF2(35-54) peptide; sequence looked up) | EIF4E2 | ITC | peptide | pH 7.0, 20 °C, GB1-stabilized peptide titration | – | ΔG | -8.8 kcal/mol
PRTARHAPAVRKASPDLKLLKDVKISVSFTE (DGCR8 peptide F108A) | Enhancer of rudimentary homolog (Homo sapiens, UniProt P84090) | DGCR8 peptide binding, ITC | peptide | 293 K | – | ΔH | -5.26 ± 0.858 kcal/mol
human CCL3 | CCR5 (Homo sapiens, UniProt P51681) | β-arrestin recruitment, agonist, Tango | U2OS | – | – | EC80 | 14 nM
FGB (Homo sapiens, UniProt P02675) | ITIH2 (Homo sapiens, UniProt P19823) | cross-linking MS | – | added: DSSO | – | cross-linked residues | K374 to K810
B1 (human SMC1A) | PP6C (human) | co-immunoprecipitation, IP-MS | CYB5R4 knockout cells | concentration not given | relative to: CYB5R4 knockout over parental | log2 fold change | -1.5
colistin | Pseudomonas aeruginosa | – | clinical isolate RKI 21/11 | – | – | MIC | ≤ 1 µg/mL
hepatocyte growth factor | MET (Homo sapiens, UniProt P08581) | receptor phosphorylation, immunoblotting | Flp-In-293 expressing MET | 10 min | – | lowest maximal concentration | 12 nM
Pentraxin 3 | Toll-like receptor 4 (Mus musculus, UniProt Q9QUK6) | fluorescence titration | – | pH 7.4, 25 °C, added: BODIPY FL-labelled alarmin | – | Kd | 393 nM
IL-8 | CXCR2 | binding, agonist radioligand displacement | – | – | – | IC50 | 0.32 nM
BDNF | NTRK2 (Homo sapiens, UniProt Q16620) | receptor phosphorylation, immunoblotting | Flp-In-293 expressing NTRK2 | 10 min | – | lowest maximal concentration | 4 nM
interleukin-8 | CXCR2 | radioligand binding, agonist | – | reference compound | – | Hill coefficient | 1.3
pro-IGF-2 | Endoplasmic reticulum chaperone BiP (Hspa5, Mus musculus, UniProt P20029) | FRET | – | pH 6.0, 37 °C, oligomer proximity, added: ADP | – | client concentration at maximal FRET | 0.3 µM
KYKLADYRYGREEMLALYVK (GIGYF1(33-52) peptide; sequence looked up) | EIF4E2 | ITC | peptide | pH 7.0, 20 °C, GB1-stabilized peptide titration | – | -TΔS | 14.6 kcal/mol
FGA (Homo sapiens, UniProt P02671) | SYP (Homo sapiens, UniProt P08247) | cross-linking MS | – | added: DSSO | – | cross-linked residues | K440 to K191
PRTARHAPAVRKFSPDLKLLKDVKISVSFTE (DGCR8(96-126), SUMO-tagged) | Enhancer of rudimentary homolog (Homo sapiens, UniProt P84090, T18A) | binding, isothermal titration calorimetry | peptide | 293 K, added: DGCR8 peptide, SUMO-tagged | – | Kd | 22400 ± 9980 nM

Some of these lines once more:
Substance | target or system | assay | system | setting | scale | quantity | result
FGB (Homo sapiens, UniProt P02675) | ITIH2 (Homo sapiens, UniProt P19823) | cross-linking MS | – | added: DSSO | – | cross-linked residues | K374 to K810
B1 (human SMC1A) | PP6C (human) | co-immunoprecipitation, IP-MS | CYB5R4 knockout cells | concentration not given | relative to: CYB5R4 knockout over parental | log2 fold change | -1.5
